Measurements gathered from unrelated publications.
Parts stem from different laboratories: compare values within a part only. Positions count from the first letter of the parent shown.

Set 1
Target: RING finger protein unkempt homolog, zinc fingers 1-6, GST-SBP tag (UNK, Homo sapiens, UniProt Q9C0B0, residues 30-357)
Chain of UniProt Q9C0B0 (30-357, looked up): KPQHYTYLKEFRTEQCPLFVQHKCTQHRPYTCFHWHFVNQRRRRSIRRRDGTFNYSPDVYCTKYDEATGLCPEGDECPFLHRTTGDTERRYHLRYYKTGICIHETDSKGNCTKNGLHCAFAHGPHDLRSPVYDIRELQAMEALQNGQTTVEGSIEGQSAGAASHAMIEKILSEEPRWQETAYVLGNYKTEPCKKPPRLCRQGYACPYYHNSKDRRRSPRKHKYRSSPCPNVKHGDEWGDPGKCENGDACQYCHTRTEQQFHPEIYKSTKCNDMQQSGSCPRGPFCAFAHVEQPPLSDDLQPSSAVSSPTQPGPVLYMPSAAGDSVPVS
Method: RNA Bind-n-Seq
Molecule type: RNA
Matrix: in vitro
Tested at: not given
Notes: RNA with constant flanks, ends assumed
Relative to: input RNA pool
Reading: higher = stronger binding
Constant ends, left off below: GGGAGUUCUACAGUCCGACGAUC … CAACAGAGGAUUGAGCAUCA
Oligonucleotide	bound/input enrichment [ratio]
UCCUCACUUACUGGAAGUGGGAAGAGAAAUAGGAUAAGAAGUUCUCUGCCAUGGAGGCAAAACCGUUGGAAAGGGUACAGUGAAAACAUGAGGAAGCUCAGAAAGACUCAUGAUAUUCCA	0.208
CCAGUUCUCAUUUCAGCUAUGAAGAUUUUUGUAACAACUAAAAACUCAAAAAACCAAGGCACCGAGGAAGCUUUAAAAAAUCGCAAUUUUACUGUAGAAAAAAUGAGUGCUGAAAUUAAU	0.197
UUUCCACUUGAUGUCAACACGCAGAAGGGGGUGAAAGGGACGCGUGACAGAUUCAGAAAUCCGCACAUUUGUGAAUGCUCGAUGCCCUGUGAGCUUGAGAAGAGGGAUCCAGAGUGGUGA	0.102
AAUAAGCUACAUAAUUCCGAAGUUAUAUUUCCUCUACCAUUUCCGUAAUUCUUACUCCAUUUCCGAAAACUUUGUUAGGCCAAAGACAAAUAGUAGGCAAGAUGGCACAGGGCAUGAAGU	0.459
UUGUUUUGUUUUGUUUUUGAGACAGAGUCUUGCCCAGGCUUAAACUUCAGCUCCACCUGCCUCCGCCUGUUGGGAUUCAUUUUCUUUAACUCACAAAGAGUAUGCAGAGUAAGCCCCAGU	0.16

Set 2
Target: Sal-like protein 4, full length isoform A (SALL4, Homo sapiens, UniProt Q9UJQ4, residues 1-1053)
Chain of UniProt Q9UJQ4 (whole entry, looked up): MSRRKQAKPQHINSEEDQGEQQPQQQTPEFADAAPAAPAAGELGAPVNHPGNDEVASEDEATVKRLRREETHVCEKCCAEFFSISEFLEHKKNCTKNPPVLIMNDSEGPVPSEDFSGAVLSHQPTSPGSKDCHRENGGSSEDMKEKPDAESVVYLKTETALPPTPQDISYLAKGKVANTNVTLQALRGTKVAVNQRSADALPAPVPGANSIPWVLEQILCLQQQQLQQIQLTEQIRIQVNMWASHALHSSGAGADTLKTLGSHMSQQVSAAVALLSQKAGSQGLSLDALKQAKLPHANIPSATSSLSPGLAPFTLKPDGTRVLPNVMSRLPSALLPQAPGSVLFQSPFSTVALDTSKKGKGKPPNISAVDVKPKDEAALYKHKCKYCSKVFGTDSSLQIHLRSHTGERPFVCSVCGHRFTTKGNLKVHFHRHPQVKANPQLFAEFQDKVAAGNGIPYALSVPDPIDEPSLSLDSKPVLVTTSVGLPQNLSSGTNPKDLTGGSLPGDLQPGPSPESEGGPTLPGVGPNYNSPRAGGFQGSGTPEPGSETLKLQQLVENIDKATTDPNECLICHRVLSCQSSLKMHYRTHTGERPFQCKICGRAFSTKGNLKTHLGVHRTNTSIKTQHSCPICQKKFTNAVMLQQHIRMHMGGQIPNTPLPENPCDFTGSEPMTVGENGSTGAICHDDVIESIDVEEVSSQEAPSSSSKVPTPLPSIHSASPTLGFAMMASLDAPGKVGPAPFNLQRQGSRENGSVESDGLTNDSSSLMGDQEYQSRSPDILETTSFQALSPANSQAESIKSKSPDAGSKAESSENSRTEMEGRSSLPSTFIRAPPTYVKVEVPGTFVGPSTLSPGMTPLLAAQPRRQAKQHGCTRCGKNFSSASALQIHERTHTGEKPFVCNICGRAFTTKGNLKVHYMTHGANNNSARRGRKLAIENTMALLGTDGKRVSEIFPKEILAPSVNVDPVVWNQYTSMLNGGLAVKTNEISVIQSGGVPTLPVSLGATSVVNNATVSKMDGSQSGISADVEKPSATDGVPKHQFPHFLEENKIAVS
Method: universal PBM
Molecule type: double-stranded DNA, one strand shown
Matrix: in vitro
Tested at: 600 nM
Notes: 8-mer, flanks averaged, mean of replicates
Reading: higher = stronger binding
Oligonucleotide	E-score
CAGCGAGG	-0.158
GTTCCAGA	0.0407
ACGCCAAA	-0.0729
CTGTCGCC	-0.277
CAGACGAA	0.0801
AGGTTGTA	0.127
AGGGAATA	0.162
CCGGCTAG	-0.353
CTAATTCA	0.322
AAGTATCT	0.121
AAACACGC	-0.0158
CTGCAACC	-0.221
GATGGAAC	-0.0456
CATGGCCC	-0.238
CCAAAGCC	-0.183
GTCCAGAC	-0.267
AGCTGACG	-0.0968
ATTTCAGA	0.213
CGGACAAA	-0.0147
GGACCGGA	-0.41

Set 3
Target: Centromere-binding protein 1, full length, N-terminal tag (CBF1, Saccharomyces cerevisiae, UniProt P17106, residues 1-351)
Chain of UniProt P17106 (whole entry, looked up): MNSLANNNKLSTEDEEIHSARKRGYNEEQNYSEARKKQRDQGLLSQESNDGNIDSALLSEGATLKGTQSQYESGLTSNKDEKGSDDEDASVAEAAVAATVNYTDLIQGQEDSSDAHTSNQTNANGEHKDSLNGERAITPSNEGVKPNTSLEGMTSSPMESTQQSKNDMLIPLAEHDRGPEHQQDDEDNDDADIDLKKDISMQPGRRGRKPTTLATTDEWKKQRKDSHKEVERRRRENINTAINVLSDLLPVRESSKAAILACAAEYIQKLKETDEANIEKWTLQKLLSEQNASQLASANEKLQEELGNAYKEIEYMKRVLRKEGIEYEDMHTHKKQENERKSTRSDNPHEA
Method: protein-binding microarray
Molecule type: double-stranded DNA, one strand shown
Matrix: in vitro
Tested at: 0.8 µM
Notes: whole 60-bp probe, no competitor
Reading: higher = stronger binding
Constant ends, left off below: … GTCTTGATTCGCTTGACGCTGCTG
Oligonucleotide	fluorescence intensity [a.u.]
CTATTATTTTCCTGTGACTTCTGGGAAGCAGTTTTC	637
GAAGACTATTTATCACGTGTGATTATGTGGTCTTAG	6240
GAATATCTTTTGAAACATCAGAAGTGTCCGTAGTAG	559
CTAGGATTCCTCTATGGCGTGTGATGTCTGTATTTC	619
GAAACTTTATGTGACATCAGCATCCTAAGTACCTAG	507
CTATGCAAGCAATTGCACGCGAGTACTCTGCGTTTC	502
CTAGTACTACCGAATCACCAGGTGAATATCTCTTTC	568
GAATTATTGCCCTCAGCCGTGCCAATAAGAATATAG	500
CTATTATCTATAGCTGGTGATGCCTTGTTGTAGTTC	549
TGTACGAAGCTATGCAACATCAGTATAGTAGTTAGG	519
GAAATGGAATTACCTCACGTTGTTCACATTAGTTAG	611
CTATTTTGATTTACTCACATGCTTAGTAAATGATTC	1470
GAAGAAAACTATGCTAACATGATGCCACTACGTTAG	488
TGTACGAAGCTATATCACCAGTATATAGTAGTTAGG	522
GAACCGTGCCTGCACCTCGTGTATCGTGATGCGTAG	1230
CTAATAATATAGTTACATGTGATGAATGTATGGTTC	1650
GAATGATTTTCTATATACATGATGTATCGGAAGTAG	577
GAACTGAAGCACATTCTCATGATGGAAACGAAGTAG	607
CTAAAGCACAAAAAGCTGACATCAGGAAGAAAATTC	547

Set 4
Target: CCNE1, cyclin fold, Cln2 fusion (human)
Method: yeast growth competition, sequencing
Matrix: yeast
Notes: weak parent motif
Relative to: not given
Reading: higher = stronger binding
Starting sequence: RB1 docking peptide (human); PKPLKKLRFDIEG
Change	normalised enrichment score
PKPLKKWRFDIEG [L7W]	0.773
PKPLKSLRFDIEG [K6S]	0.141
PKPLKKLRFDIEF [G13F]	0.704
PKDLKKLRFDIEG [P3D]	0.719
PKPLKKLRRDIEG [F9R]	-0.117
PKPLKTLRFDIEG [K6T]	0.538
PKPLKKLRFDIEP [G13P]	0.263
PKPLEKLRFDIEG [K5E]	0.533
PKPLKKLVFDIEG [R8V]	0.546
PKPHKKLRFDIEG [L4H]	-0.24
PKPNKKLRFDIEG [L4N]	0.375
PKPLKKLRFDYEG [I11Y]	-0.0143
PKPLKQLRFDIEG [K6Q]	0.0479
PKPLKKLRFDIEM [G13M]	-0.203
PKPLKKLRFDQEG [I11Q]	-0.951
PKPLKKLRFDIEK [G13K]	1.42
PKPLKKNRFDIEG [L7N]	0.0196
PKPLKKLRFDIWG [E12W]	1.38

Some of these lines once more (set 2):
Oligonucleotide	E-score
CTGCAACC	-0.221
CTGTCGCC	-0.277
CGGACAAA	-0.0147
GGACCGGA	-0.41
AAGTATCT	0.121
CCGGCTAG	-0.353
GTCCAGAC	-0.267
CAGCGAGG	-0.158
CTAATTCA	0.322
GTTCCAGA	0.0407
